Measurements collected from several papers.
Parts stem from different laboratories: compare values within a part only. Positions count from the first letter of the parent shown.

Series 1
Target: CCNB3, cyclin fold, Cln2 fusion (human)
Method: yeast growth competition, sequencing
Sample: yeast
Notes: weak parent motif
Reference: not given
Reading: higher = stronger binding
Starting sequence: INSM1 docking peptide (human); PKAIRKLHFEDEV
Change	normalised enrichment score
H8R	-0.257
E10Y	0.145
I4V	0.255
H8W	0.00561
E10C	0.0461
H8E	0.113
E10W	0.462

Series 2
Target: Sal-like protein 4, full length isoform A (SALL4, Homo sapiens, UniProt Q9UJQ4, residues 1-1053)
UniProt Q9UJQ4, sequence (whole entry, looked up): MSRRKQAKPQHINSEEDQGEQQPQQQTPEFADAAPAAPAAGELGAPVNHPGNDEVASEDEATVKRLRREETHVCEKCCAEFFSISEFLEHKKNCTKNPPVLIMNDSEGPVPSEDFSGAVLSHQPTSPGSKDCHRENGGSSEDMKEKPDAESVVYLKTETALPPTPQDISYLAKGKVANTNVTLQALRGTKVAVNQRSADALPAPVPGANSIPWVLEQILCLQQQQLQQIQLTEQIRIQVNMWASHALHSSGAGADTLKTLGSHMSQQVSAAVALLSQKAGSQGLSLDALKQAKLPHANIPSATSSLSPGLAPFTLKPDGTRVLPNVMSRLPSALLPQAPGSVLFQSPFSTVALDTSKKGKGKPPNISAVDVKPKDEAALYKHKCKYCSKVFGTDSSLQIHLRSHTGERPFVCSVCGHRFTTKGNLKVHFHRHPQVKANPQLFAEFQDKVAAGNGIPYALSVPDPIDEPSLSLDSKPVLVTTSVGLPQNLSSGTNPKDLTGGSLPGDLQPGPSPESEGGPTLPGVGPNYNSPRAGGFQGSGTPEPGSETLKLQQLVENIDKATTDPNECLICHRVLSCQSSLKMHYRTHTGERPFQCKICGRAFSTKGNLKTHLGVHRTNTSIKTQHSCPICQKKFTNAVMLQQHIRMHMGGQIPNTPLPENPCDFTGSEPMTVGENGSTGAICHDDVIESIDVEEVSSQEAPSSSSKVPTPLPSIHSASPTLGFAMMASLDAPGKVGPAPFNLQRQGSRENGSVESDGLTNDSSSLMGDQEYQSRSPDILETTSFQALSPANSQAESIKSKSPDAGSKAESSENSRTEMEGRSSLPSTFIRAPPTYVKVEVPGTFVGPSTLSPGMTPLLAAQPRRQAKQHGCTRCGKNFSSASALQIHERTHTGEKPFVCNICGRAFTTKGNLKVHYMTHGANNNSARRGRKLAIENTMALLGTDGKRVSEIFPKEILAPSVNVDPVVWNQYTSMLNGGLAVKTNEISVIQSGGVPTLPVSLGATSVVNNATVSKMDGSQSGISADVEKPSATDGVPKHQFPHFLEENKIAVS
Method: universal PBM
Molecule type: double-stranded DNA, one strand shown
Sample: in vitro
Tested at: 600 nM
Notes: 8-mer, flanks averaged, mean of replicates
Reading: higher = stronger binding
Oligonucleotide	E-score
CCTAGGAA	-0.0332
CTAGCTCC	-0.186
CCTCAGCG	-0.158
GAAAGAAC	0.0229
AATACAGA	0.213
ACTACATA	0.289
ACCAATCC	-0.114
CCGGAGAA	-0.213
GACCAGGA	-0.219

Series 3
Target: Ras GTPase-activating protein-binding protein 1, RRM domain (G3BP1, Homo sapiens, UniProt Q13283)
UniProt Q13283, sequence (whole entry, looked up): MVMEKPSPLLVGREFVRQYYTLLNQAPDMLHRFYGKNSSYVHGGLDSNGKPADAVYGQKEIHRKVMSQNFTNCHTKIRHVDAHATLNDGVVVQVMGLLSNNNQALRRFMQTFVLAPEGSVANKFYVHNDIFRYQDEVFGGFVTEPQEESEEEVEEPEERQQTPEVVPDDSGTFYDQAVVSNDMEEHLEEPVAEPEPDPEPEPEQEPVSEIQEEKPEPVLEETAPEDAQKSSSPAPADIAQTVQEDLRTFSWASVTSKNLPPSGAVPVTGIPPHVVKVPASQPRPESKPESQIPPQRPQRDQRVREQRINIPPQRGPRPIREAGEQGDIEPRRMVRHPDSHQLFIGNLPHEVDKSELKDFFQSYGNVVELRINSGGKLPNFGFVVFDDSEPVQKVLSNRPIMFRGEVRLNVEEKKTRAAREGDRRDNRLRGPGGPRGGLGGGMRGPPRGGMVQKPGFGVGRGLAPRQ
Method: RNA Bind-n-Seq
Molecule type: RNA
Sample: in vitro
Tested at: 1 µM
Notes: whole 134-nt RNA, ends assumed
With: 150 mM KCl
Reference: input library
Reading: higher = stronger binding
Shared flanks, not repeated: GGGAGUUCUACAGUCCGACGAUC … UGGAAUUCUCGGGUGUCAAGG
Oligonucleotide	log2 enrichment
AGUCCUGUGCUACACAUCGUAUGUACCGAAUCGGGGAAAAGGGAAAAGGGAAAAGGGGAAAGUAUUAUGUUACGCCGUUCGGAUCUGCAC	0.612
CAAGUCCUGUGCUACACAUCGUAUGUACCGAAUCGGUUUUGGGUUUUGGGUUUUGGAAAGUAUUAUGUUACGCCGUUCGGAUCUGCACUU	-0.315
CACAGACAACACGCACCCACACAGACACAGAGGGAAGGGGUUGGGAUGGGGACAGGGUGGACAGCAGGGCGGGGUAGGACCCCAGCCCCU	-0.00802
AAGUCCUGUGCUACACAUCGUAUGUACCGAAUCGGAAAAAGGAAAAAGGAAAAAGGAAAGUAUUAUGUUACGCCGUUCGGAUCUGCACUU	-0.0191
UCCUGUGCUACACAUCGUAUGUACCGAAUCAAACCCAAACCCCCCCAAACCCCCCCAAAAAAGUAUUAUGUUACGCCGUUCGGAUCUGCA	-0.21
GUCCUGUGCUACACAUCGUAUGUACCGAAUCGGCCCCCCGGCCCCCCGGGCCCCCCGGGAAAGUAUUAUGUUACGCCGUUCGGAUCUGCA	-0.445
UGGCCCUGGUGGCAUGCGGGGAGGAAGAGGUGGCCUCAUGGAUCGUGGAGGUCCCGGUGGAAUGUUCAGAGGUGGCCGUGGUGGAGACAG	-0.00379
UGGCCCUGGUGGCAUGCGGGGAGGAAGAGCUGGCCUCAUGGAUCGUGGUGGUCCCGGUGGAAUGUUCAGAGGUGGCCGUGGUGGAGACAG	0.966

Other studies, line by line
Molecule	target	assay	test system	setting	how to read	endpoint	result
PhoQ, residues 284 288 289 292 302 303 SCCLKL	PhoP, residues 12 14 15 18 19 STWGI (Escherichia coli, UniProt P23836)	Sort-seq, measured: YFP reporter	E. coli	PhoQ-PhoP variant library, with: 10 µM Mg2+	reference: high Mg2+ state, higher = stronger signaling	fold induction	4.09

Repeated from above (series 2):
Oligonucleotide	E-score
CCTCAGCG	-0.158
AATACAGA	0.213
CTAGCTCC	-0.186
CCTAGGAA	-0.0332
